Results pooled from the literature.
Compare with care: the assays were run in different laboratories.
UCHL1: Ubiquitin carboxyl-terminal hydrolase isozyme L1 (UCHL1, Homo sapiens, UniProt P09936)
UniProt P09936, sequence (whole entry, looked up): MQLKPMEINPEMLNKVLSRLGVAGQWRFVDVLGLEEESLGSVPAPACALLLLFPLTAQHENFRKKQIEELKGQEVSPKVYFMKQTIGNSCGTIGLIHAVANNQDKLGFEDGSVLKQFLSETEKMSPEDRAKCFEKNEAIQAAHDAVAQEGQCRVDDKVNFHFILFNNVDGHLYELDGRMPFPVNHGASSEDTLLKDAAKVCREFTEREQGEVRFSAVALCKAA

| Compound | tested on | assay | conditions | quantity | value |
| --- | --- | --- | --- | --- | --- |
| C=CC(=O)N1CCC(COCC(=O)N2CCN(c3nc(-c4cnc(N)nc4C(F)F)nc(N4CCOC[C@@H]4C)n3)CC2)CC1 | MDA-MB-453 | western blot, item: phospho-S6 Ser235/Ser236 | 2 h | IC50 | 549 nM |
| C[C@H](Nc1ccc2c(c1)OCCn1cc(N3C(=O)OC[C@H]3C(F)F)nc1-2)C(N)=O | MDA-MB-453 | cell growth, CellTiter-Glo | 120 h | Hill coefficient GR curve | 1.89 |
| O=C(/C=C/C=C/C=C/C1CCCCC1)NC1=C[C@@](O)(/C=C/C=C/C=C/C(=O)NC2=C(O)CCC2=O)[C@@H]2O[C@@H]2C1=O | MDA-MB-453 | cell growth, CellTiter-Glo | 78 h | GI50 | 8290 nM |
| O=C(Cc1ccccc1)Nc1nnc(CCSCCc2nnc(NC(=O)Cc3ccccc3)s2)s1 | MDA-MB-453 | cell proliferation, inhibitor, cell counting | 144 h | EC50 | ~20000 nM |
| CCn1cc(-c2cc(Cn3ccoc3=N)cc3c2CCN([C@@H](C)c2cc(OC)ccn2)C3=O)c(C(F)(F)F)n1 | MDA-MB-453 | cell growth, inhibitor | 120 h | EC50 | 193 nM |
| Cc1nc(NC(=O)N2CCC[C@H]2C(N)=O)sc1-c1ccnc(C(C)(C)C(F)(F)F)c1 | MDA-MB-453 | western blot, item: phospho-S6 Ser235/Ser236 | 2 h | IC50 | 2010 nM |
| COc1cnc2cccc(N3CCc4c(cc(Cn5ccnc5C)cc4-c4cn(C)nc4C(F)(F)F)C3=O)c2c1 | MDA-MB-453 | cell growth, inhibitor | 120 h | EC50 | 977 nM |
| O=C(CCl)N1CCCCc2ccc([N+](=O)[O-])cc21 | UCHL1 | covalent, intact protein LC-MS | 12.5 µM | labelling | 12% |
| C[C@H](Nc1ccc2c(c1)OCCn1cc(N3C(=O)OC[C@H]3C(F)F)nc1-2)C(N)=O | MDA-MB-453 | resazurin growth rate inhibition | 72 h | GR50 | 6.3 nM |
| O=C(c1cc(Cc2n[nH]c(=O)c3ccccc23)ccc1F)N1CCN(C(=O)C2CC2)CC1 | MDA-MB-453 | – | – | IC50 | 435 nM |
| CCOC(=O)C(C#N)=Cc1cccc([N+](=O)[O-])c1 | UCHL1 | covalent, intact protein LC-MS | 12.5 µM | labelling | 15.6% |

A few entries again:
| Compound | tested on | assay | conditions | quantity | value |
| --- | --- | --- | --- | --- | --- |
| C=CC(=O)N1CCC(COCC(=O)N2CCN(c3nc(-c4cnc(N)nc4C(F)F)nc(N4CCOC[C@@H]4C)n3)CC2)CC1 | MDA-MB-453 | western blot, item: phospho-S6 Ser235/Ser236 | 2 h | IC50 | 549 nM |
